Results collected from several papers.
Target: Bone morphogenetic protein receptor type-2 (BMPR2, Homo sapiens, UniProt Q13873)

The remaining binding of `CC(C)=CC1OC(C)(C)C2C=C3C(=O)C(Cl)=CC(O)C3C3C(O)C4OC4C(=O)C132` (stereo not shown) is reported as 77% (cell-free assay, competition with immobilised ligand; 10 µM).
`CNS(=O)(=O)Nc1nccc(Cc2c(C)c3ccc(Oc4ncccc4F)cc3oc2=O)c1F` has a remaining binding of 100% (cell-free assay, competition with immobilised ligand; 10 µM).
`CC(=O)N1c2ccc(-c3ccc(CNC(=O)c4cn5cc(-c6cnc(N)nc6)nc(N6CCOCC6)c5n4)cc3)cc2CC[C@@H]1C` gave a remaining binding of 85% (KINOMEscan; 10 µM).
The remaining binding of `Cc1cnc2nc1Nc1cccc(c1)COC/C=C/COCc1cc(ccc1OCCN1CCOCC1)N2` is reported as 90% (binding; 0.1 µM).
With `COc1c(Cl)cccc1Nc1c(-c2ccncc2C#C[C@@]2(C)CCCN2C(=O)/C=C/CN(C)C)[nH]c2c1C(=O)NCC2` the remaining binding was 91% (cell-free assay, competition with immobilised ligand; 3 µM).
`NC(=O)C[C@H]1CCc2sc3ncnc(O[C@H]4CC[C@H](N5CCOCC5)CC4)c3c21` gave an inhibition of 17% (enzyme activity, inhibitor; 10 µM).
For `Nc1ncc2c(n1)-c1c([nH]c3ccc(C4=CCOCC4)cc13)CCC2`, the remaining binding was 72% (binding, competition with immobilised ligand; 1 µM).
With `COc1ccc(NC(=O)Nc2ccc3c(c2)C(=O)N(C(C)CO)CC(C)C(CN(C)Cc2ccc4c(c2)OCO4)O3)cc1` (stereo not shown) the remaining binding was 100% (binding, competition with immobilised ligand; 10 µM).
`O=C(Cc1ccc(OCc2ccccc2)cc1)NC1(C(=O)O)CCN(C(=O)c2ccc(-c3cccc(Cl)c3)cc2)CC1` — result for “activity vs control”: 114% (enzyme activity, inhibitor; 10 µM).
For `CN1CCN(Cc2ccc(NC(=O)c3cccc(C#Cc4cnc(N)c5ncccc45)c3)cc2C(F)(F)F)CC1`, the remaining binding was 80% (cell-free assay, competition with immobilised ligand; 50 nM).
The remaining activity of `COc1cc(Nc2nc(C)cc(-c3cnn4nc(OC)ccc34)n2)cc(C(F)(F)F)c1` is reported as 100% (inhibitor; 1 µM; baseline: control).
`CNC(=O)C1CCN(c2cc(C)c(F)cc2NC(=O)c2ccc(-c3cc(O)ccc3C)c(C)c2)CC1` gave a remaining binding of 90% (binding, competition with immobilised ligand; 1 µM).
With `C=CC(=O)N1Cc2nc(-c3cc(-c4cc(Cl)cnc4Cl)c(F)cc3F)n(-c3ccncn3)c2C1` the inhibition was -1.4% (cell-free assay; 1 µM).
